{"data": "Results from different studies", "note": "Numbered parts are unrelated; each lists some results of a single study.", "sequence of UniProt P10721 (whole entry, unmodified, looked up)": "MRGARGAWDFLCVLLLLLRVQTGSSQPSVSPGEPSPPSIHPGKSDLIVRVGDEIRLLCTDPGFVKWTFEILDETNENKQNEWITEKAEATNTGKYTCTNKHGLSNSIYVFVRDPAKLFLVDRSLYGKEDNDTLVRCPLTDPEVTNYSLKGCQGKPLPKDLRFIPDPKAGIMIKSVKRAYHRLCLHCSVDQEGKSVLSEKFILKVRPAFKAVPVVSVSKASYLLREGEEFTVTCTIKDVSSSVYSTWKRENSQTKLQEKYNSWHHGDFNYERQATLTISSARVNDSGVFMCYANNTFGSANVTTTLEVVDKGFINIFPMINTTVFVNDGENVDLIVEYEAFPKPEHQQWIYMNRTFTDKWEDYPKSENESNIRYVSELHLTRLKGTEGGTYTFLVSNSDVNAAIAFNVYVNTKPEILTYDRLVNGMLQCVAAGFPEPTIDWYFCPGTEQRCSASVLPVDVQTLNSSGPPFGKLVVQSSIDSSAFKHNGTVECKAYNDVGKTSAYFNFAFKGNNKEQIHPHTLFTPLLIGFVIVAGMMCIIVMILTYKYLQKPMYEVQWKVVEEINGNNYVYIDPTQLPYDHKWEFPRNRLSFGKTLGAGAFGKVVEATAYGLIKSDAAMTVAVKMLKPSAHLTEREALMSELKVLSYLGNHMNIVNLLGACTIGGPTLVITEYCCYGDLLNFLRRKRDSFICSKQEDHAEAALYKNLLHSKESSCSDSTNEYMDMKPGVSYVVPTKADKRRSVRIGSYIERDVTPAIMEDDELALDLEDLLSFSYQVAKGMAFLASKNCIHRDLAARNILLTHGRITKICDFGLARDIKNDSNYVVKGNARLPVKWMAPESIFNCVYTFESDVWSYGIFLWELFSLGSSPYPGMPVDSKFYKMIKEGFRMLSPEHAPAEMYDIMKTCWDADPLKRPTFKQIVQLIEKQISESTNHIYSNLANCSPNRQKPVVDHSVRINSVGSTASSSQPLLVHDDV", "sequence of UniProt Q9NQU5 (whole entry, looked up)": "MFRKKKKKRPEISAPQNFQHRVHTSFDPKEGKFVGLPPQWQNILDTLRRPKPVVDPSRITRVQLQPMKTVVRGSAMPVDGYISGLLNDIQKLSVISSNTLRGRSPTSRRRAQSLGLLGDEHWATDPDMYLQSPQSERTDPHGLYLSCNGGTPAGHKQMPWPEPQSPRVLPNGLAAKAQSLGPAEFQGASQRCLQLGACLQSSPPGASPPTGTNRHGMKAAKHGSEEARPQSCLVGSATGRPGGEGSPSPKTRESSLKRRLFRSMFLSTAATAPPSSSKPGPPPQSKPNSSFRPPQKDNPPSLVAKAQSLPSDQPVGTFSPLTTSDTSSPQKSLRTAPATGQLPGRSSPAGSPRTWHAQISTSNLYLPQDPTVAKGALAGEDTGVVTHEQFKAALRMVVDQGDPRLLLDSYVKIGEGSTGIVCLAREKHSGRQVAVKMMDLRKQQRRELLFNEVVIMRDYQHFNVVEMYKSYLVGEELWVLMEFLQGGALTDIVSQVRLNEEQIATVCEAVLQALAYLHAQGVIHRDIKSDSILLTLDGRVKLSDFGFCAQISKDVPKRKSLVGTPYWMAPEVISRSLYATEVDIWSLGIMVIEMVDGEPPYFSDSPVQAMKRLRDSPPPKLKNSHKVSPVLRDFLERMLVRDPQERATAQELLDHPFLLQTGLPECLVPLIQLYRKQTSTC", "sequence of UniProt O60331 (whole entry, looked up)": "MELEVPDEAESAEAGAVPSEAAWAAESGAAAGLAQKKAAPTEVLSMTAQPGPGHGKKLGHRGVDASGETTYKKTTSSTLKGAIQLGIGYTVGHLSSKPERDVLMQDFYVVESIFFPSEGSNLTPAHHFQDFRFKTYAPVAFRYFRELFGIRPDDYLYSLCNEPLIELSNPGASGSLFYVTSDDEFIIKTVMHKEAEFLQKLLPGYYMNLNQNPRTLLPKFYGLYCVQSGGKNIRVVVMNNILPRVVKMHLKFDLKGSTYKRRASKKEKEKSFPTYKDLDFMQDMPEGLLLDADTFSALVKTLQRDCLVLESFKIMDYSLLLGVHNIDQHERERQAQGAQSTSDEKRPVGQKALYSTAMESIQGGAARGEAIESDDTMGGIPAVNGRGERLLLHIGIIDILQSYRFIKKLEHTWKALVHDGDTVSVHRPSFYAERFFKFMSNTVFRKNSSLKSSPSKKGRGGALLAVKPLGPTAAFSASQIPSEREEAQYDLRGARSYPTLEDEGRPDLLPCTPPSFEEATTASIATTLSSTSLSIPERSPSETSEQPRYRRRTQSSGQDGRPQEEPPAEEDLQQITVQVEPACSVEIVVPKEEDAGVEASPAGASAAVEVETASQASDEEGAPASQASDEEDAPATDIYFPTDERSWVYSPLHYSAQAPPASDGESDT", "sequence of UniProt Q8TBX8 (whole entry, looked up)": "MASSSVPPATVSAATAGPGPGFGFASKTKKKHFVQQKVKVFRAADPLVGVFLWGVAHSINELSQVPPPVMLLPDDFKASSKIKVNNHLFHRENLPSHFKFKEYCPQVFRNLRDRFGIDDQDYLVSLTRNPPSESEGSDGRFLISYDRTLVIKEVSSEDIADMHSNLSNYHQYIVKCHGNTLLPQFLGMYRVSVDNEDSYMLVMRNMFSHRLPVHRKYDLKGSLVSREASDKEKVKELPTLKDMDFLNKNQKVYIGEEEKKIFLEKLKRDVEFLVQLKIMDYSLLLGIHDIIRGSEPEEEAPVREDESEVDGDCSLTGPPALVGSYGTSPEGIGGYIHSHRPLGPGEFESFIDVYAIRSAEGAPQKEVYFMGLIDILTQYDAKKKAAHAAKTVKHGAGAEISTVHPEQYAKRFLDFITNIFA", "sequence of UniProt O75385 (whole entry, looked up)": "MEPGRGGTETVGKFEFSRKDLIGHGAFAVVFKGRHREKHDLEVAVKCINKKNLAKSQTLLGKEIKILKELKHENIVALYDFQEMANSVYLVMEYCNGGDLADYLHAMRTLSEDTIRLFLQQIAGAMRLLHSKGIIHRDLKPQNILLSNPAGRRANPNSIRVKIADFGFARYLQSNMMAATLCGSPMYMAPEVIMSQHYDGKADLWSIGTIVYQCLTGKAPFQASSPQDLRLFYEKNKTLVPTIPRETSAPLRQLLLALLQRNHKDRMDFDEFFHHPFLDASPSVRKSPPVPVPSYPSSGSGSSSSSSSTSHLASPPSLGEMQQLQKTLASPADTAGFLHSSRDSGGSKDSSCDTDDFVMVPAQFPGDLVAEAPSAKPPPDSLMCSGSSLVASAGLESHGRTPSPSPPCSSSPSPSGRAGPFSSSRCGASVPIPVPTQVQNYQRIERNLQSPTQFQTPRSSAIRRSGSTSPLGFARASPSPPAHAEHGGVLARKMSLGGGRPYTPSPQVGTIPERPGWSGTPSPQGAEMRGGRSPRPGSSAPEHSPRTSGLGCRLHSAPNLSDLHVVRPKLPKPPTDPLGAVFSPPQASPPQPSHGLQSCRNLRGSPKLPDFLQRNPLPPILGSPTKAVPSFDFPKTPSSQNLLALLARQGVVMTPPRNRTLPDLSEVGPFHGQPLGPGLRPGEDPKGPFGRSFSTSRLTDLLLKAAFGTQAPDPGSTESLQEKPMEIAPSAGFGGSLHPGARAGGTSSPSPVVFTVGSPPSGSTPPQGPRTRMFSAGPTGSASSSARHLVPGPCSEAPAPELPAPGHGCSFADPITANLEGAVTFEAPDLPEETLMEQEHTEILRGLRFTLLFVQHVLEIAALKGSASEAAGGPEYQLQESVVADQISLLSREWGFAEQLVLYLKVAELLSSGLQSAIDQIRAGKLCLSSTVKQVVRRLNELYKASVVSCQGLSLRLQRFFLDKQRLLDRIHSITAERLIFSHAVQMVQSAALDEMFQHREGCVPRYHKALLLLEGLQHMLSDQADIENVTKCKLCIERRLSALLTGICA"}
{"data": "Study 1", "SMILES": "COc1ccc(-c2c(Nc3ccccn3)[nH]c3c(C4=CCCCC4)c(-c4ccccc4)nn3c2=O)cc1", "species": "cancer patients", "sample": "plasma", "route": "oral"}
{"setting": "400 mg once daily, cycle 1 day 15, multiple dosing", "Tmax, median [h]": 3}
{"setting": "150 mg once daily, cycle 1 day 15, multiple dosing", "Tmax, median [h]": 2}
{"setting": "100 mg, cycle 0 day -3, single dose", "Tmax, median [h]": 3}
{"setting": "100 mg once daily, cycle 1 day 15, multiple dosing", "Tmax, median [h]": 3}
{"data": "Study 2", "Compound": "CC(C)n1cnc(-c2ccc(F)cc2)c1-c1ncc(C(=O)Nc2ccc(N3CCN(C)CC3)cc2)[nH]1", "method": "phase 2a clinical trial", "species": "patients with idiopathic pulmonary fibrosis"}
{"assay": "refers to: electrocardiogram high voltage", "setting": "dose not given, Grade 3, all drug arms total", "patients with treatment-emergent adverse events": "0%"}
{"assay": "refers to: C-reactive protein increased", "setting": "dose not given, Grade 3, all drug arms total", "patients with treatment-emergent adverse events": "0%"}
{"assay": "refers to: first degree atrioventricular block", "setting": "dose not given, Grade 3, all drug arms", "patients with treatment-emergent adverse events": "0%"}
{"assay": "refers to: gastro-oesophageal reflux disease", "setting": "30 mg once daily, Grade 3", "patients with treatment-emergent adverse events": "0%"}
{"assay": "refers to: electrocardiogram high voltage", "setting": "30 mg once daily, Grade 4", "patients with treatment-emergent adverse events": "0%"}
{"data": "Study 3", "Structure (SMILES)": "CN([C@@H]1CCc2c(CC(=O)O)c3cc(S(C)(=O)=O)ccc3n2C1)S(=O)(=O)c1ccc(F)cc1", "tested at": "1 µM"}
{"target": "Serine/threonine-protein kinase 17A (STK17A, Homo sapiens, UniProt Q9UEE5)", "assay": "cell-free assay, competition with immobilised ligand", "remaining binding [%]": 100}
{"target": "Ephrin type-A receptor 4 (EPHA4, Homo sapiens, UniProt P54764)", "assay": "cell-free assay, competition with immobilised ligand", "remaining binding [%]": 93}
{"target": "Serine/threonine-protein kinase tousled-like 2 (TLK2, Homo sapiens, UniProt Q86UE8)", "assay": "cell-free assay, competition with immobilised ligand", "remaining binding [%]": 100}
{"target": "Mast/stem cell growth factor receptor Kit, autoinhibited (KIT, Homo sapiens, UniProt P10721)", "assay": "cell-free assay, competition with immobilised ligand", "remaining binding [%]": 89}
{"target": "Receptor-type tyrosine-protein kinase FLT3 (FLT3, Homo sapiens, UniProt P36888, F691L/ITD)", "assay": "cell-free assay, competition with immobilised ligand", "remaining binding [%]": 98}
{"target": "Mast/stem cell growth factor receptor Kit (KIT, Homo sapiens, UniProt P10721, V559D)", "assay": "cell-free assay, competition with immobilised ligand", "remaining binding [%]": 92}
{"target": "Tyrosine-protein kinase ABL1, non-phosphorylated (ABL1, Homo sapiens, UniProt P00519, F317I)", "assay": "binding, competition with immobilised ligand", "remaining binding [%]": 75}
{"target": "Phosphatidylinositol 5-phosphate 4-kinase type-2 gamma (PIP4K2C, Homo sapiens, UniProt Q8TBX8)", "assay": "cell-free assay, competition with immobilised ligand", "remaining binding [%]": 100}
{"target": "Phosphatidylinositol 4,5-bisphosphate 3-kinase catalytic subunit alpha isoform (PIK3CA, Homo sapiens, UniProt P42336, I800L)", "assay": "cell-free assay, competition with immobilised ligand", "remaining binding [%]": 72}
{"target": "Phosphatidylinositol 4-phosphate 5-kinase type-1 gamma (PIP5K1C, Homo sapiens, UniProt O60331)", "assay": "cell-free assay, competition with immobilised ligand", "remaining binding [%]": 100}
{"target": "Serine/threonine-protein kinase RIO1 (RIOK1, Homo sapiens, UniProt Q9BRS2)", "assay": "cell-free assay, competition with immobilised ligand", "remaining binding [%]": 100}
{"target": "NUAK family SNF1-like kinase 1 (NUAK1, Homo sapiens, UniProt O60285)", "assay": "cell-free assay, competition with immobilised ligand", "remaining binding [%]": 100}
{"target": "Cyclin-dependent kinase-like 3 (CDKL3, Homo sapiens, UniProt Q8IVW4)", "assay": "cell-free assay, competition with immobilised ligand", "remaining binding [%]": 100}
{"target": "Serine/threonine-protein kinase ULK1 (ULK1, Homo sapiens, UniProt O75385)", "assay": "cell-free assay, competition with immobilised ligand", "remaining binding [%]": 92}
{"target": "Atypical kinase COQ8A, mitochondrial (COQ8A, Homo sapiens, UniProt Q8NI60)", "assay": "cell-free assay, competition with immobilised ligand", "remaining binding [%]": 87}
{"target": "Serine/threonine-protein kinase MRCK gamma (CDC42BPG, Homo sapiens, UniProt Q6DT37)", "assay": "binder, KINOMEscan competition binding", "how to read": "baseline: DMSO", "remaining binding [%]": 93}
{"target": "Serine/threonine-protein kinase MAK (MAK, Homo sapiens, UniProt P20794)", "assay": "cell-free assay, competition with immobilised ligand", "remaining binding [%]": 65}
{"data": "Study 4", "SMILES": "Oc1cccc(-c2nc(N3CCOCC3)c3oc4ncccc4c3n2)c1", "observed": "enzyme activity", "mode": "inhibitor", "tested at": "0.5 µM", "baseline": "control"}
{"target": "Serine/threonine-protein kinase PAK 6 (PAK6, Homo sapiens, UniProt Q9NQU5)", "remaining activity": "105%"}
{"target": "Insulin-like growth factor 1 receptor (IGF1R, Homo sapiens, UniProt P08069)", "remaining activity": "97.1%"}
{"target": "Tyrosine-protein kinase JAK1 (JAK1, Homo sapiens, UniProt P23458)", "remaining activity": "104%"}
{"target": "Protein kinase C zeta type (PRKCZ, Homo sapiens, UniProt Q05513)", "remaining activity": "99.1%"}
{"target": "Calcium/calmodulin-dependent protein kinase kinase 1 (CAMKK1, Homo sapiens, UniProt Q8N5S9)", "remaining activity": "84.6%"}
{"data": "Study 5", "species": "human", "sample": "microsomes or S9", "tested at": "2 µM", "time": "0.5 h"}
{"SMILES": "COC(=O)/C(=C(/F)OCC(=O)N(C)c1ccc(F)cc1)c1ccc(OC)cc1", "remaining compound [%]": 17.7}
{"SMILES": "COc1ccc(C(=O)C2=CN(c3ccc(N(C)C)cc3)c3ccccc3S2(=O)=O)cc1OC", "remaining compound [%]": "> 100"}
{"SMILES": "Cc1ccc(Nc2cc(N3CCN(c4oc(C)nc4C#N)CC3)ncn2)cc1", "remaining compound [%]": 6.26}
{"SMILES": "COc1cc(=O)n(-c2ccc(F)cc2)nc1C(=O)Nc1ccc(-c2nc3ccc(C)cc3s2)cc1", "remaining compound [%]": 65.2}
{"SMILES": "CC(C)(C)c1ccc(C(O)CCC(=O)N[C@@H]2C=C[C@H](CO)C2)cc1 (stereo partly shown)", "remaining compound [%]": 14.3}
{"SMILES": "Cc1ccc(F)c(N2CCC(NS(=O)(=O)c3cnc4c(c3)c(C)nn4C)CC2)c1", "remaining compound [%]": 1.86}
{"note": "A few entries again (study 3):"}
{"target": "Cyclin-dependent kinase-like 3 (CDKL3, Homo sapiens, UniProt Q8IVW4)", "assay": "cell-free assay, competition with immobilised ligand", "remaining binding [%]": 100}
{"target": "Phosphatidylinositol 4-phosphate 5-kinase type-1 gamma (PIP5K1C, Homo sapiens, UniProt O60331)", "assay": "cell-free assay, competition with immobilised ligand", "remaining binding [%]": 100}
{"target": "Tyrosine-protein kinase ABL1, non-phosphorylated (ABL1, Homo sapiens, UniProt P00519, F317I)", "assay": "binding, competition with immobilised ligand", "remaining binding [%]": 75}
{"target": "Receptor-type tyrosine-protein kinase FLT3 (FLT3, Homo sapiens, UniProt P36888, F691L/ITD)", "assay": "cell-free assay, competition with immobilised ligand", "remaining binding [%]": 98}
{"target": "Phosphatidylinositol 4,5-bisphosphate 3-kinase catalytic subunit alpha isoform (PIK3CA, Homo sapiens, UniProt P42336, I800L)", "assay": "cell-free assay, competition with immobilised ligand", "remaining binding [%]": 72}
{"target": "Serine/threonine-protein kinase ULK1 (ULK1, Homo sapiens, UniProt O75385)", "assay": "cell-free assay, competition with immobilised ligand", "remaining binding [%]": 92}
